Results pooled from the literature.
A part holds a random share of what one study measured. Substitutions count along the parent as printed.

Set 1
Substance: PhoQ, residues 284 288 289 292 302 303 SIHMAM
Method: Sort-seq
Item: YFP reporter
Medium: E. coli
Setting: PhoQ-PhoP variant library
With: 10 µM Mg2+
Relative to: high Mg2+ state
Reading: higher = stronger signaling
Measurement: fold induction
PhoP, residues 12 14 15 18 19 QQAYL (Escherichia coli, UniProt P23836): 11.2
PhoP, residues 12 14 15 18 19 LFHKL (Escherichia coli, UniProt P23836): 1.79
PhoP, residues 12 14 15 18 19 GMGLL (Escherichia coli, UniProt P23836): 2.3

Set 2
Target: RNA binding protein fox-1 homolog 2, RRM domain, GST-SBP tag (RBFOX2, Homo sapiens, UniProt O43251-10, residues 100-194)
Method: RNA Bind-n-Seq
Form: RNA
Medium: in vitro
Tested at: 365 nM
Setting: natural RNA segment, single round, ends assumed
Relative to: no-protein control
Reading: higher = stronger binding
Measurement: RBNS enrichment (R)
Residues (chain): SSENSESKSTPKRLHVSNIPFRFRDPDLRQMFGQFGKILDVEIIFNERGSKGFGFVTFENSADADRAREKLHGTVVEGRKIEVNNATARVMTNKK
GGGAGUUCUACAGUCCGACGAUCAGAUAGCAUCAAUAAUAUAGUCUCAGUCUUGUUUAUAAAGAUUCUAAGUUGUCUAGUAAAUAAGUCUCCCUGAAUCUUAAAUAAUUUUGGAGAAUUAGAAUUCUCCAUCCUGGAAUUCUCGGGUGCCAA: 0.59
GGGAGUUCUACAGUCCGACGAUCAGAGGAAUCAAACUGGUUCCCUUUCUUUCUGGGAACCCCUGCCAUGUUACUCUAAAGACCCCAGCAACCCAGAGAGAGCCCUGCUUCCAUCUUCCCAGGGCAGGACCACAUGGAAUUCUCGGGUGCCAA: 0.696
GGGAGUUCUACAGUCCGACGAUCUUAAGUACCAAAAGGCUAUGCUGUAUGAAUUUCAGAAAUGGACUGAAAAAAUGGAGAGCAGUGUAAUAGACACACACUACAUCGGAAGAACUGACUUCUGAAACGAAGAGUGGAAUUCUCGGGUGCCAA: 0.67
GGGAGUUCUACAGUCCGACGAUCCUCCUGGCCUCAGGAUCUCCCUGGGGCAGGAAGUGGGUGGACUUGGAGGAGGAACGGCAAGGGCCGGUCCCCACACUCUUGCUCCUCCUGGGCAUCUGGGGACAGGAACAUGGAAUUCUCGGGUGCCAA: 0.237
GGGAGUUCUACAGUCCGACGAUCUCAAAAAAUCAGGUAGCAGUCCUAAAUGGACUCAUGACAAAUACCAAGGGGAUGGGAUUGUUGAAGAUGAAGAAGAGACCAUGGAAAAUAAUGAAGAAAAGAAGGACAGAUGGAAUUCUCGGGUGCCAA: 0.83
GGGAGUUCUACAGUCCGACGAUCUGCAGAUGUGUCUGGACUUGAGCCCAGUGCUUUGGGGCCUUGAGACUCCAGCGACUGCACACCCGCUCUGUGCUGCGGCCAGGGAGGGUGAGAACCAUCGCUCCUUUGCCUGGAAUUCUCGGGUGCCAA: 0.256
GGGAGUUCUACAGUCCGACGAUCGCACCAGACUUGGGGGGUGUAAUCUCCGGCAACUUGCAUGCCCUCUGAAAGAAGGGUUUUCUGUGCUGUGAAAUGCAUAGAACUUACACUUUGCCGUGCACGACUGUUCCUGGAAUUCUCGGGUGCCAA: 0.612
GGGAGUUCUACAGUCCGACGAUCACUGUCUGCUGCCGCCUGCCGGGGUGGCAGAGUGAGUUGUCUCAGGACCCCGUCACUGCGACGUUGACACUCCUCUCCCUUCCCUUCCUCCCCAACUCCCCAAACACUGUUGGAAUUCUCGGGUGCCAA: 2.45
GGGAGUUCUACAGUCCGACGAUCUUUCUCUGUUGGUUUCUUCCUCAAGUUUGCAUUGUUUUCUUUUGUUAAAAUUAGAGAUUUCUUUUUAUUUUCCAGUUAUAGUAAUACUAGCUGUCAGCUUAAACCCUCUGUGGAAUUCUCGGGUGCCAA: 0.57
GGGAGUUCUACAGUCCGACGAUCUAUAAUACUGCUAAGAGAAGCCGGAAGCUUUUUUUUCUUGGAUUGCUUAUGAGCAGUAAUUUAAGAAAACCCACAAAACUUGAUUGUGAAAAACCGAAUAACCAAGCAGCUGGAAUUCUCGGGUGCCAA: 0.982
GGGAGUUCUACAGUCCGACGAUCAGGAAAAUGUACUGUUGUGUGUUUCAUUUGUGUGAUUUCGUACCAAAAAAAUGUGUUUGAACUAUAUUGUAUGUAAUUUGGAAGUCGUGUUAAUAAAACCCUGCAGUUUCUGGAAUUCUCGGGUGCCAA: 1.73
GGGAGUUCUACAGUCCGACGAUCGUAAGGGGAGGCUGCCUCACUUUGAAGGAAUGGUGUUGGCUAACAGGAUCCAUGAAAUUCCUAGGUCAGUUGAAUAAUAACUGAACUACUGGUUUGACUGUGGAUUAUUUUGGAAUUCUCGGGUGCCAA: 0.856

Set 3
Target: Centromere-binding protein 1, full length, His-tagged (CBF1, Saccharomyces cerevisiae, UniProt P17106, residues 1-351)
UniProt P17106, sequence (whole entry, looked up): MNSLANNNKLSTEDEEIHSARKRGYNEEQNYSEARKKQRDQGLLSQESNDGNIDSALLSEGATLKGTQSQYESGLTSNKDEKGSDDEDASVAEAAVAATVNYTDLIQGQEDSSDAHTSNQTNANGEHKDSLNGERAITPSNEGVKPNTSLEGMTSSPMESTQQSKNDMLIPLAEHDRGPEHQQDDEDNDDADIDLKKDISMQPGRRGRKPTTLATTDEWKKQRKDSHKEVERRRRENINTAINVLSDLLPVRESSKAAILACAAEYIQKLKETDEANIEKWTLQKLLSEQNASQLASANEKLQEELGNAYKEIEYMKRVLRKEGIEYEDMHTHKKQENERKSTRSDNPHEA
Method: competition protein-binding microarray
Form: double-stranded DNA, one strand shown
Medium: in vitro
Tested at: 2 µM
Setting: whole 60-bp probe, lowest competitor level
With: Pho4 competitor, 0.05 µM
Reading: higher = stronger binding
Measurement: fluorescence intensity
TTGCGCAGGGCGAGCCAGATGAACGCTCTAGTCGTCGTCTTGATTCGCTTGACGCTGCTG: 46.8 a.u.
CTTCTGTAAATTTCCCACGTGTTTTGACGCGCCCCGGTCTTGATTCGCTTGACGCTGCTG: 847 a.u.
ATTCAATGTTCTCAGGACGTGCTAAAAGGAAACCCAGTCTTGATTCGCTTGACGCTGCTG: 73.5 a.u.
GAATGGAGTAAAGGCAGCGTGGGTACCCTGTGGAAAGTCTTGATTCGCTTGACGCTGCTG: 66.3 a.u.
TTACAAATGGTTCAGATCATGCAGATGCAGCACTTGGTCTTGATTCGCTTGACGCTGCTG: 72.4 a.u.
AAAGCGGTAATTTGCTCTGTGGGTGCAGATATCTATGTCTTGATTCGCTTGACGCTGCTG: 84.5 a.u.
CGGGGTTAAGTTTGATTCGTGGGTGGCTTGCAGCAGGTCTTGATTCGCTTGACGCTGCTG: 68.7 a.u.
TGCGCAACAACTTGTCACCAAACTTTATGTCTAGAAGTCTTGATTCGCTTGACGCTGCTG: 71.7 a.u.
CCAGACCGTTTAGGCCATGTGCGGATTGTACTTGTTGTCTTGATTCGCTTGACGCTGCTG: 80.6 a.u.
TGCTAAGACCATAGGCACATGTACGCAGGCGACCAGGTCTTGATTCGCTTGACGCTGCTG: 110 a.u.
CTTCTGTAAATTTTGCACGTGTTTTGACGCGCCCCGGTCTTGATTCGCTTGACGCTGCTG: 1370 a.u.
CGTCCTAGTGATTGTCACGGTACTTCCATGAGGAAGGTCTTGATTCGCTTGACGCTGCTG: 245 a.u.
TGAGTCTTTGGGTCCCACGTGCTTTCTAAAACTTCAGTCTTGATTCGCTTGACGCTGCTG: 2180 a.u.
CTAACGAAGGTTTGTCACTGTACTTACAAGCCAAGTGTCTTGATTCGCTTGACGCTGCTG: 70.5 a.u.
CGGAGCTGCAAGTACTACGTGCCAGCAGCATAATAAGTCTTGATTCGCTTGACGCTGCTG: 72.5 a.u.
CAAAAACTAAACTGGCACGCTAGAGAAAAGTAGTCAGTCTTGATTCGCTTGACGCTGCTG: 78.3 a.u.
GGTAAATCACCTATAGACGTGCGATGCAATAACCCTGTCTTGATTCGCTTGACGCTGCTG: 62.2 a.u.
CATACCCAACCTTGAATTGTGGGTGAAGATATTTGTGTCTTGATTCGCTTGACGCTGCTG: 84.5 a.u.

Set 4
Target: CCND2, cyclin fold, Cln2 fusion (human)
Method: yeast growth competition, sequencing
Medium: yeast
Setting: weak parent motif
Relative to: not given
Reading: higher = stronger binding
Measurement: normalised enrichment score
Starting sequence: RBL2 docking peptide (human); STTRRRLFVENDS; partner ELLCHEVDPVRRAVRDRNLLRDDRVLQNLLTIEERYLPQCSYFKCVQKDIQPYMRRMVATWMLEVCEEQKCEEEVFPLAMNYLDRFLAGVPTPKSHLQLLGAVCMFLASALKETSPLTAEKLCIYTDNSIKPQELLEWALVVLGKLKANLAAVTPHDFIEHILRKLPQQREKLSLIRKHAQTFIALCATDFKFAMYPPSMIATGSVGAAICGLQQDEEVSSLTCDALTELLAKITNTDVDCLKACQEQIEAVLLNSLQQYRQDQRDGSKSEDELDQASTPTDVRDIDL
D12A: -0.191
F8M: 0.000636
V9Y: 0.258
S13N: -0.0862
R4V: 0.134
R4C: 0.535
D12Q: 0.0942
T3N: 0.232
R6F: 0.185
R4N: 0.0818
E10T: -0.28
F8C: 0.214
R4T: 0.419
F8Y: 0.0506
R5G: 0.0491
T2K: 1.12
S13R: 0.376
D12N: -0.0865
V9N: 0.705
F8D: 0.215
T2G: 0.65
N11D: 0.53
F8Q: 0.528
E10W: -0.00105
R5H: 0.6

Set 5
Target: ABI1, truncated, D143A, DHFR fusion (Arabidopsis thaliana)
Method: DHFR PCA, deep sequencing
Medium: yeast
Setting: methotrexate growth selection, single substitutions
With: (+)-ABA 200 µM
Relative to: wild-type fitted maximum
Reading: higher = stronger binding
Measurement: relative binding score
Starting sequence: PYL1, truncated, DHFR fusion (Arabidopsis thaliana); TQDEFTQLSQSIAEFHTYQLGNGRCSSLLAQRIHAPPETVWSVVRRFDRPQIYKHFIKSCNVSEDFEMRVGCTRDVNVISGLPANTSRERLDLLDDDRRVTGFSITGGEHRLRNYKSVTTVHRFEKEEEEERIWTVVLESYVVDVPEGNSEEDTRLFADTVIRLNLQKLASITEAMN
E139Y: 99.9%
L156D: 87.4%
P36F: 86%
E129L: 100%
P36S: 98.3%
A84P: 0.191%
V118C: 101%
Q2W: 103%
Y53L: 2.94%
T86E: 91.6%
M68N: 100%
L91M: 96.2%
L20F: 92.8%
E130Q: 101%
T135G: 6.47%
D159G: 78.4%
T120R: -1.67%
H55R: 102%
S63P: 102%
S11K: 86.7%

Set 6
Target: Histone acetyltransferase KAT6A, winged helix 1, GST fusion (KAT6A, Homo sapiens, UniProt Q92794, residues 1-85)
Method: protein binding microarray
Form: double-stranded DNA, one strand shown
Medium: in vitro
Tested at: not given
Setting: 8-mer, flanks averaged, mean of 2 arrays, mostly near background
Relative to: not given
Reading: higher = stronger binding
Measurement: E-score
Residues (chain): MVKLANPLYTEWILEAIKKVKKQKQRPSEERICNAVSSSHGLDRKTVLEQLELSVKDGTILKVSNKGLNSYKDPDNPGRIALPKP
AAGACCCA: -0.148
TGCGGCCA: 0.136
CAAGTACC: 0.0482
AATCCAAG: -0.228
CCAGAGAG: -0.299
CAACGGAC: 0.189
GAGTGTGA: -0.292
CTTATACA: -0.00899
ACGCTAAC: 0.163
AGATGAAG: -0.203
CAGCTAAG: -0.146
CGCCCCGA: 0.322
GCATCTGA: -0.0277
ATAGCGCC: 0.303
CTGCAGGC: -0.174
ATTGGACG: -0.0771
CTACTTTC: -0.0558
GCCTTAGA: 0.0164
AAGCATTC: -0.0543
GCACTCAC: -0.0433
AAAGAGTA: -0.085
CGCCTCTC: -0.0317
CGGAAACC: 0.178
CGGGCGGA: 0.336
CTTTTACA: -0.0596

Set 7
Target: Interferon regulatory factor 5, full length, phosphomimetic (IRF5, Homo sapiens, UniProt Q13568-2, residues 1-514, K96S/S451D/S453D/S456D/S462D)
Method: protein-binding microarray
Form: double-stranded DNA, one strand shown
Medium: in vitro
Tested at: 250 nM
Setting: 60-bp whole probe
With: salmon DNA 0.4 mg/ml
Relative to: random background probes
Reading: higher = stronger binding
Measurement: log fluorescence
Shared flanks, not repeated: GCCTAGCAC … GTCTTGATTCGCTTGACGCTGCTG
TCAATCCCCAGTCTCATACTGTGCTAG: 0.0974 z-score
TTAGGTTTCGGGTATCGCTTAGTGCTA: 9.35 z-score
CCACTTTCAGTTCTCCCTTTGTGCTAG: 7.96 z-score
TTAGGACTGGGTTTTGGTTAGTGCTAG: 0.553 z-score
CTAGTTGTGATTCTTTCGATGTGCTAG: 5.69 z-score
TTGTCTCTGTCCCTGTTTCTGTGCTAG: 1.34 z-score
TCAAGTATGTTCACTATTACTGTGCTA: 0.417 z-score
TCACCTCAGGGTTTCAGACTGTGCTAG: -0.0826 z-score
TTAGGCCTCCTTTTCCTTTAGTGCTAG: 0.118 z-score
TTAAGAATGTTTTTCATTGTGTGCTAG: 1.15 z-score
GTCGAACTGGGGTATCGAGACGTGCTA: 0.42 z-score
ACTAGCTTCCATTTTCTGAAGTGCTAG: 0.952 z-score
TCAGCTTTCCTGATGACACTGTGCTAG: -0.0875 z-score
TTAGCACTGCTTATCCTTTAGTGCTAG: -0.168 z-score
TCACTTTTTTGTTCCACACTGTGCTAG: 1.33 z-score
TTAGGACTGGACTATGGGTTAGTGCTA: -0.336 z-score
TTAGGTATCGGTTTCGGGTAGTGCTAG: 9.55 z-score
GTCGGTCTCCTTCTCCTGACGTGCTAG: 0.262 z-score
TTAGGTTTCGGGTTTAGGTTAGTGCTA: 8.34 z-score
GACGATTTCGGATATCGAGACGTGCTA: 2.78 z-score
TATTGTTTCCTTCCTCTTTTGTGCTAG: 2.47 z-score
